Results gathered from unrelated publications.
Compare with care: the assays were run in different laboratories. ± gives the spread as reported.

The tracer uptake of `C[C@]12CC[C@H](OCC[18F])C[C@H]1CC[C@@H]1[C@@H]2CC[C@]2(C)[C@@H](c3ccc(=O)oc3)CC[C@]12O` is reported as 3.24 %ID/g (SMMC-7721 tumour model; nude, tumour; intravenous, 7.4 MBq, 4 h, tumour-bearing).
For `CCC(=O)N(C)c1ccc(Cl)c(Cl)c1`, the revertants was 15 ± 5 revertants/plate (Salmonella typhimurium; Ames test; TA1535; 0.10 mg/plate, without S9 activation).
`CN(C)CC1CCCCC1(O)c1cccc(O)c1` (stereo not drawn) has a Papp A-to-B of 6.5 ± 0.3 ×10⁻⁶ cm/s (Caco-2 TC7 monolayer; 10 µM, 3 h, apical pH 6.8, basolateral pH 7.4).
`COc1cc(C(=O)NCCOCCOCCOCCNC(=O)c2ccc([18F])nc2)ccc1NC(=O)C1NC(CC(C)(C)C)C(C#N)(c2ccc(Cl)cc2F)C1c1cccc(Cl)c1F` (stereo not drawn) gave a tracer uptake of 0.26 %ID/g (HepG2 tumour model; host not given, heart; 4 h, tumour-bearing).
`Cc1nc([C@H](NC(=O)c2ccc(-c3ccc(Cl)cc3)[nH]2)[C@H]2CCCCN2)sc1CO` has a CC50 of roughly 20 µM (U87.CD4.CXCR4; cell growth or viability, XTT).
The AUC(0-inf) of `C[C@@](O)(C(F)F)[C@H](NC(=O)c1ccc(C#CC#CC2CC2)cc1)C(=O)NO` is reported as 141 µg·h/mL (dog, plasma; intravenous, 100 mg/kg).
The tracer uptake of `O=C(O)CCC(NP(=O)(O)OCCC[C@@H](NC(=O)CCC(NC(=O)CCCCCNC(=O)c1ccc([18F])cc1)C(=O)O)C(=O)O)C(=O)O` (stereo partly drawn) is reported as 0.1 %ID/g (CWR22Rv1 tumour model; host not given, muscle; intravenous, 2 h, tumour-bearing).
With `CN[C@](C)(C[18F])C(=O)O` the tracer uptake was 2 %ID/g (SK-OV-3 tumour model; host not given, bone; 2 h, tumour-bearing).
With `COc1ccc(CNc2nc(N3CCC[C@H]3CO)ncc2C(=O)NN)cc1Cl` the revertant count was 30 ± 2 (Salmonella typhimurium; TA98; 62.5 µg/plate, 48 h, added: rat liver S9).

A few entries again:
`CN(C)CC1CCCCC1(O)c1cccc(O)c1` (stereo not drawn) has a Papp A-to-B of 6.5 ± 0.3 ×10⁻⁶ cm/s (Caco-2 TC7 monolayer; 10 µM, 3 h, apical pH 6.8, basolateral pH 7.4).
